Published values pooled from the literature.
Each numbered part is a random draw from the data of one study; scales do not carry over between parts.

Set 1
Target: Interferon regulatory factor 5, full length, phosphomimetic (IRF5, Homo sapiens, UniProt Q13568-2, residues 1-514, K96S/S451D/S453D/S456D/S462D)
Method: protein-binding microarray
Form: double-stranded DNA, one strand shown
Sample: in vitro
Concentration: 250 nM
Setting: 60-bp whole probe
Together with: salmon DNA 0.4 mg/ml
Reference: random background probes
Direction: higher = stronger binding
All sequences stand within: GCCTAGCAC … GTCTTGATTCGCTTGACGCTGCTG
| Sequence | log fluorescence |
| --- | --- |
| CTGCTCTGTGCACAGAAGACGTGCTAG | -0.416 z-score |
| CTATGAAGTCATGTCTTCAGGTGCTAG | -0.169 z-score |
| TTAGATATCGGGTTGCGATTAGTGCTA | 2.59 z-score |
| TTAGGTATCCTTTTCATTTAGTGCTAG | 1.07 z-score |
| TCACCACCCACTCTGGCACTGTGCTAG | -0.177 z-score |

Set 2
Target: Histone acetyltransferase KAT6A, both winged helices, GST fusion (KAT6A, Homo sapiens, UniProt Q92794, residues 1-181)
Method: protein binding microarray
Form: double-stranded DNA, one strand shown
Sample: in vitro
Concentration: not given
Setting: 8-mer, flanks averaged, mean of 2 arrays, mostly near background
Reference: not given
Direction: higher = stronger binding
Construct (chain): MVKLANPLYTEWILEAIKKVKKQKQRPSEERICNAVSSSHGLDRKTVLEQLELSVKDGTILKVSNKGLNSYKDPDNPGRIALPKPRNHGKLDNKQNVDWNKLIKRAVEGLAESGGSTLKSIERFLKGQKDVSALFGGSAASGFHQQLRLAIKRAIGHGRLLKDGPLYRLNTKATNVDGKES
| Sequence | E-score |
| --- | --- |
| AGGCTTCA | -0.0203 |
| GCAACGCA | 0.149 |
| GGCTACTA | 0.0641 |
| CCCCCAAG | -0.298 |
| ATGAAGAC | -0.0607 |

Set 3
Target: Sal-like protein 4, full length isoform A (SALL4, Homo sapiens, UniProt Q9UJQ4, residues 1-1053)
UniProt Q9UJQ4, sequence (whole entry, looked up): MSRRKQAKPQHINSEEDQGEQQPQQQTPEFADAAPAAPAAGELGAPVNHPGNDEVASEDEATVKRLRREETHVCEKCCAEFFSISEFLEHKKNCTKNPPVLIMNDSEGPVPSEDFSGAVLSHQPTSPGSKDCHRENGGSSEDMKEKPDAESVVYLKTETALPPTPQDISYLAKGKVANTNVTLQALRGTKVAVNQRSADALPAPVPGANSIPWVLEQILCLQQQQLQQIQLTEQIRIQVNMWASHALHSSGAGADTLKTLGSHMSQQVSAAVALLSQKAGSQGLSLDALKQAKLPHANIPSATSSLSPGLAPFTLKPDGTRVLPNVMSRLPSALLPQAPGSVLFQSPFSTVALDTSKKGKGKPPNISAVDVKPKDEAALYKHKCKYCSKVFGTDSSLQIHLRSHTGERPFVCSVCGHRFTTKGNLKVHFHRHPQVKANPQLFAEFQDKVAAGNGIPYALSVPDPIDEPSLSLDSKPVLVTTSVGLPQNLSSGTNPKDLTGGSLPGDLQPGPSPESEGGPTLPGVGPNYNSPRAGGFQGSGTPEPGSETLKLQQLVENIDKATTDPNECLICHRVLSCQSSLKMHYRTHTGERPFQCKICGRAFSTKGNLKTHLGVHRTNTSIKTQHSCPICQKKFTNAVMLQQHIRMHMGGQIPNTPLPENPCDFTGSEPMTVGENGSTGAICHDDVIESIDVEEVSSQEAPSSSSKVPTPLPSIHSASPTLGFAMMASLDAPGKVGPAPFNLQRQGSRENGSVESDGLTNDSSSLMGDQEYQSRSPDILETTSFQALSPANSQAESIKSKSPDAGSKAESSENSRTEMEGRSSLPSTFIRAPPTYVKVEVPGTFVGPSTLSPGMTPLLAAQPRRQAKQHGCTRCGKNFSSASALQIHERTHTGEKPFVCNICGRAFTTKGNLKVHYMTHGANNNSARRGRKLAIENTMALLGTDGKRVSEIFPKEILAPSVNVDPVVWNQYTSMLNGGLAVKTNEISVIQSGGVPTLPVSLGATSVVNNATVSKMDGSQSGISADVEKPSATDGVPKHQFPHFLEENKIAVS
Method: universal PBM
Form: double-stranded DNA, one strand shown
Sample: in vitro
Concentration: 600 nM
Setting: 8-mer, flanks averaged, mean of replicates
Direction: higher = stronger binding
| Sequence | E-score |
| --- | --- |
| AAGCTGGG | -0.151 |
| AGACCTTG | -0.0053 |
| AGATCCAC | 0.0667 |
| ATCGGGTC | -0.163 |
| ATTTCTGG | 0.142 |
| ATAGACCG | -0.0562 |

Other studies, line by line
| Molecule | target | test | test system | conditions | how to read | measurement | value |
| --- | --- | --- | --- | --- | --- | --- | --- |
| PhoQ, residues 284 288 289 292 302 303 TYGVAM | PhoP, residues 12 14 15 18 19 AGCRL (Escherichia coli, UniProt P23836) | Sort-seq, item: YFP reporter | E. coli | PhoQ-PhoP variant library, together with: 10 µM Mg2+ | reference: high Mg2+ state, higher = stronger signaling | fold induction | 13.3 |

Some of these lines once more (set 1):
| Sequence | log fluorescence |
| --- | --- |
| TCACCACCCACTCTGGCACTGTGCTAG | -0.177 z-score |
| CTGCTCTGTGCACAGAAGACGTGCTAG | -0.416 z-score |
